Experimental data from different studies.
Numbered parts are unrelated; each lists some results of a single study.

Study 1
Target: Centromere-binding protein 1, full length, His-tagged (CBF1, Saccharomyces cerevisiae, UniProt P17106, residues 1-351)
Chain of UniProt P17106 (whole entry, looked up): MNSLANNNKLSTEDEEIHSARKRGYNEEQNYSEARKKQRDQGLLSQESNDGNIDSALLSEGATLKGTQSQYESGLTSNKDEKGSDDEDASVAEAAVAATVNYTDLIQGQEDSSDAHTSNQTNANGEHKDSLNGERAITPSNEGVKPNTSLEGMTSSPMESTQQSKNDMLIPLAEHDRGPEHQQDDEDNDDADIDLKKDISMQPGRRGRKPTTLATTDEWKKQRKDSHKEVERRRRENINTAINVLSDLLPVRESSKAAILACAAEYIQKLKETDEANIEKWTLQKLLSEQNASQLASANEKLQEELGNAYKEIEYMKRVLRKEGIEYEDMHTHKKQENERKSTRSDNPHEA
Method: competition protein-binding microarray
Form: double-stranded DNA, one strand shown
Sample: in vitro
Tested at: 2 µM
Notes: whole 60-bp probe, lowest competitor level
Together with: Pho4 competitor, 0.05 µM
Reading: higher = stronger binding
Constant ends, left off below: … GTCTTGATTCGCTTGACGCTGCTG
Oligonucleotide	fluorescence intensity [a.u.]
AAGGTTTCGTTATCTACCGTGTCGGAGTTAGAAGTG	66
ATAAGCCAGAATCCACACGGGAACTTCGGACTTTGC	72.1
ACTTTCAACGTCCATCACGTGAACGACCGGCATTCT	2840
CTTTCCCGATCTTGTGCCGTGGGTGTAGCACATTTG	59.5
GTCTTGTCTCATTGTCACCTGACTTTCCCCACTTCA	1480
CGGGAAAGTTAAAGTACCGTGATGGGGACCGCCCTT	82.6
ATTCAGGCGGGTTGCCACGTGGCCGTTTATCTAATG	1490
CACAACCTTAACAGCAACGTGAACCTCAACATGAAC	116
ACTCCCTGCGCCTATGCCGTGCCAGAGCAAATAAAG	80
AAATTACTAAGTTGTCACGTCACTTACCCCGTATGA	130
CATACCCAACCTTTTCACGTGGTGTAAGATATTTGT	1080
TGCGCAACAACTTTTCACGTGTTATTATGTCTAGAA	1170
CTAACGAAGGTTTTTCACGTGATCTACAAGCCAAGT	7300
CCTAGAGAGCGGCACCACGCGGACTCGACGGCCGCG	53.7
GCGCTTGCATCGCTGCATGTGTTAACCGAAAAGTTT	80.2
AAAGCGGTAATTTGTTAGGTGGGTGCAGATATCTAT	87.6
CGGGGTTAAGTTTGTTATGTGGGTGGCTTGCAGCAG	74.4
ATGCTATGCCTATTGTTTATTTGGATTTTCCCATAT	92
CTGTCCAGCGCAGACCACGTGGCCCTTCCTGGTGCT	2120

Study 2
Target: Histone acetyltransferase KAT6A, both winged helices, GST fusion (KAT6A, Homo sapiens, UniProt Q92794, residues 1-181)
Method: protein binding microarray
Form: double-stranded DNA, one strand shown
Sample: in vitro
Tested at: not given
Notes: 8-mer, flanks averaged, mean of 2 arrays, mostly near background
Baseline: not given
Reading: higher = stronger binding
Target sequence (chain): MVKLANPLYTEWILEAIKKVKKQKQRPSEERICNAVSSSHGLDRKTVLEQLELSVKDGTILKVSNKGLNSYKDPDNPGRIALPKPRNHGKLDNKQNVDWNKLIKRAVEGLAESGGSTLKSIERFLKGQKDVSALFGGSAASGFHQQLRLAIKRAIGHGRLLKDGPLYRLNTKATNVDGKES
Oligonucleotide	E-score
AGGTACAT	-0.178
AAGCTAGG	-0.0623
GACGATCC	-0.0958
TTGAACAA	-0.00932
GACAGCCA	-0.127
AGCGCCCC	0.0162
AGCCCGAG	0.096
ATCAGTCA	-0.0409
ATAGAGAT	-0.0453
CCTTTAGC	-0.0892
GTTACGCA	0.134
AACCATCC	-0.0175
CAAAGGGG	-0.251
AGGGATAA	-0.177
AGCCCAAA	-0.136
ACATAGGT	-0.158
TATTGGGA	-0.188
AATCCGTG	0.147
TGGGGACA	-0.262
AGGGCACT	-0.233
ATGAGAGG	-0.282
AATACAAT	-0.0569

Study 3
Target: RNA binding protein fox-1 homolog 2, RRM domain, GST-SBP tag (RBFOX2, Homo sapiens, UniProt O43251-10, residues 100-194)
Method: RNA Bind-n-Seq
Form: RNA
Sample: in vitro
Tested at: 365 nM
Notes: natural RNA segment, single round, ends assumed
Baseline: no-protein control
Reading: higher = stronger binding
Constant ends, left off below: GGGAGUUCUACAGUCCGACGAUC … UGGAAUUCUCGGGUGCCAA
Residues (chain): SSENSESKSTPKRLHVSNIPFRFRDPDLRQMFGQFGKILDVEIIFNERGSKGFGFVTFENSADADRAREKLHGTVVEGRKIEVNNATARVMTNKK
Oligonucleotide	RBNS enrichment (R)
AUUUCCAGGUAUGGGGGUAGCCCCAAAAGGAGGAAUCUCCUAUGGCCAAUAAGGUAUCUUGACUUUAUCAAAGUAGAAGAGAGGGUCACUUCGGAGUCAAAUCAUACACU	0.251
CCUCUCCUGAUUCAGACCAGCUCCAUCAAGCAACCUCUUUUGACUUUCUGUAUAUGGAUGGCACAGAGGAAUCAAGGACAACUUAGCUCUCUGCAUACUUGGAACAACCA	0.666
GUCCCUCUCUCUCCAACAUCUUGAAGUUUGCAAUUUAGACAGCUCUUUGUUUUCUAAUGCAAUAUGUGCCUCUUCCCCUCGCUGAACCUCUAAGACAUAUGUAUUUCACA	0.549
CUUUGCACCAAGAGAAAGCUUUCCAAAAUUAACCUUCACAGCAGCGUUGUAAGUAACUGAGGUCCAUGUGGAAAAGAUGGCUUGUAUUUUUGAAAUGAUCACAACACACU	0.72
UCACAUACAGUACAGACAACCUCAAAAAUCUGUUUAUAUUAGUGUAAAUAGAAAAAUGGUAGACCGCUGUCUAGUUUUCUCCGCAGGCAUUUUUGGGAGUGUAUCUAUAG	0.527
CCUUUGCUGAAAAGUGAGCUCAGAUCCAGCACCAUGUUCCUCCUGACCCAUCCUGUCUAUCUUCUCAGUUGAGUUUUUAAUCUCACUUUGGGUUUCCUUGUGAAGUUGGA	0.2
AGUGUGAUCUGGAUGUGUGAUAAUCCAUUUUUAGAAUAUUAAUUUCAUUACCCAUUAAUUAUGGCCAACUGUAAGGAGAUAGUCCUGUUACUAUUCUUAAAUGAAGUCCU	0.351
GAAAUUGACAGAUUUGGUGAAUAACUUUUCCAUACUAUUCCUGCUUUUCCCAUCCACUGAAACAGCCUGUUGUAGCAAGAGGCUUUCAAGAGUGCAGUGGAGUUGCGCUG	0.299
CAUCUGGCUUGAACUUUUUUUGUCCUUCCUGGAAUAGCUUCAGAUCAAUAGGCUUAAUGAAAGAGGUCUUUCUUGCUUUGGCUGAGAGCAGCCUCUUUUUAAAGUGUGAU	0.252
UAGAUGGCUUCUUGCCAGUUUGAGCCUAAUCUGAUUCUUACAGUUUUACCUUCUUGAACCAAUGUAAAAGUUUUUUUAAUGUUAAAUGAUUAAAUUCUCAGUGAGGCUAU	0.519
AAAAGAACAGAGUGCAUCUCUUGGGAUGGGCUUCUCUCGGAGUGUAAAAGCAAGGGGCCAGGAUUGUGCUGGCAGCCAGGGAGACAGUAGUGCCUGCGGAAGUUGGCAGA	0.532
GCCGUUUGAACUUUGAGCAUUUAUCUAAAUUAAAUUGGCCCAGGGUUGGCUGGUGGGUCACCCAGCAGAGGCUUCUCCCCAUAGCACGAGGAUGUGUUGCCUGGGCACGG	2.32

Study 4
Target: RING finger protein unkempt homolog, zinc fingers 1-6, GST-SBP tag (UNK, Homo sapiens, UniProt Q9C0B0, residues 30-357)
Method: RNA Bind-n-Seq
Form: RNA
Sample: in vitro
Tested at: not given
Notes: RNA with constant flanks, human and mouse sites, ends assumed
Baseline: input RNA pool
Reading: higher = stronger binding
Constant ends, left off below: GGGAGUUCUACAGUCCGACGAUC … CAACAGAGGAUUGAGCAUCA
Construct (chain): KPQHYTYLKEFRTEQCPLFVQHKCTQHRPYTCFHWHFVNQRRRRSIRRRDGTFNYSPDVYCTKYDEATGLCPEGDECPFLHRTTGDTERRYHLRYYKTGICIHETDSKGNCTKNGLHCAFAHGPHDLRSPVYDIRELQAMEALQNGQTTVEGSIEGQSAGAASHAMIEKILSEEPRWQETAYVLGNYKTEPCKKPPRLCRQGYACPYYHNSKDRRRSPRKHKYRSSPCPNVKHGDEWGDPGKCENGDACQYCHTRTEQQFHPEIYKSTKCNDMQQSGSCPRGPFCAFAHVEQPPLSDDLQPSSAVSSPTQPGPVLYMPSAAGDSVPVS
Oligonucleotide	bound/input enrichment [ratio]
GGUGGCCAGAACCCAGGGACCAUUGGAUUUCAAAGCUUGCUUUUUCUGUUGGUUCUUCUCUCUCCUUCUCUCUCUGUCUCUCCCAUUCUCCUGCCCAUGCAUGAAAGGAUCCUCCACCUU	0.245
UCUGGCCAUGGCCCCUCUGCCAAGCCUGUGUGCGAUGCCCUUGGUGCUUUAGUGCAAGAAGCCUAGGCUCAGAAGCACAGCAGCGCCAUCUUUCCGUUUCAGGGGUUGUGAUGAAGGCCA	0.116
GAAAUGGCAACCACAGAGGAUGCUCAGGCCGCAGUGGAUUAUUACACAACCACACCAGCGUUAGUAUUUGGCAAGCCAGUGAGAGUUCAUUUAUCCCAGAAGUAUAAAAGAAUAAAGAAA	0.676
AAUGCUUGUUGGGUGCAUAAACAUUUCACAGAGGAUAUCCAGACACGUCAGUAUAGGUCCAUAGAGGUUUUAAUAGGAGCAGGCUACAGCACACCUGCAGACAUUUGGAGUACAGCUUGC	4.43
UCUUUACAUUAUAACCACUCUGCUAAGUUUUUGAAGGAGUUGACGUUAUCCAUGGAUGAACUGGAAGAAAAUUUUCGAGGUAUGCUGAAAAGCGCAGCCACCAAAGUCACCACAGUACUA	0.196
UUUUCUGCGUCUUGGUGGCAUGCAUGUGUCUCAUCAUCCUUUCAAACUUGUGGUGGAACAGGGUUUUCUUCCCUGUCUGUGUAUUUUGAGCCAGCACAGUUACCAAAAUUGAACUUGUCU	0.237
UUCGAUGUGAGAAUUGAACGAGAUGCACAAGAAAUGGCUGAUAGUUUAGGAGUUAGAAUUUUUAGUGCAGAAAUUAUUUAUCAUUUAUUUGAUGCCUUUACAAAAUAUAGACAAGACUAC	43.5
CUCUUUGAUCAGGCAUAUUUGAUGAGGCCUUCUAUAAUAUUUUUUGAUGAAAUAGAUGGCUUAGCUCCUGUUCGUUCUAGUAGACAAGAUCAGAUCCACAGCUCUAUAGUGUCAACCCUC	0.349
AUUUGGUCAAGGCCAGAAAGCACCCAGGUACAGAACAUCCUGCGCCAGAGAACAGAGAAUAUAGAUAUUAAAAAGUAUUGUGUGCAGUACCUGGAGGAUGUAGGUUCUUUUGCAUACACU	4.9
UAUGAUGUCCUGGUUGCCAUGACUAUCUUUUUCAACACUCACAAUGAGCCAGUGCGGCAGUUGGCUAUUUUCUGUCCCCAUGUGGCACUCCAAACAACGAUCUGUGAAGUCCUGGAACGC	0.17
ACCCGGGGCACCUCCAUCAAGGAAUUCCGGGAGAUGACCCUCAGCUUCCUCAAGGCGAACCUGGGAGACCUGCCUUCCCUGCCGGCGCUGGUUGGCCAGGUCCUGCUCAUGGCUGACUUC	0.084

A few entries again (study 3):
Oligonucleotide	RBNS enrichment (R)
CAUCUGGCUUGAACUUUUUUUGUCCUUCCUGGAAUAGCUUCAGAUCAAUAGGCUUAAUGAAAGAGGUCUUUCUUGCUUUGGCUGAGAGCAGCCUCUUUUUAAAGUGUGAU	0.252
UAGAUGGCUUCUUGCCAGUUUGAGCCUAAUCUGAUUCUUACAGUUUUACCUUCUUGAACCAAUGUAAAAGUUUUUUUAAUGUUAAAUGAUUAAAUUCUCAGUGAGGCUAU	0.519
AAAAGAACAGAGUGCAUCUCUUGGGAUGGGCUUCUCUCGGAGUGUAAAAGCAAGGGGCCAGGAUUGUGCUGGCAGCCAGGGAGACAGUAGUGCCUGCGGAAGUUGGCAGA	0.532
GCCGUUUGAACUUUGAGCAUUUAUCUAAAUUAAAUUGGCCCAGGGUUGGCUGGUGGGUCACCCAGCAGAGGCUUCUCCCCAUAGCACGAGGAUGUGUUGCCUGGGCACGG	2.32
